Values quoted from earlier work that unrelated publications cite.
Numbered parts are unrelated; values within a part may stem from several laboratories. ± marks the error that the study gave. Converted amounts (≈) assume the structure as drawn.

Sample 1 — organism: Cryptosporidium parvum; technique: high-throughput screen; tested at: concentration not given
SMILES | activity
CN(C)[C@@H]1C(O)=C(C(N)=O)C(=O)[C@@]2(O)C(O)=C3C(=O)c4c(O)cccc4[C@@](C)(O)[C@H]3C[C@@H]12 | inactive
CC(=O)Nc1ccc(CC(=O)O)cc1 | inactive
CC1=C(CC(=O)O)c2cc(F)ccc2/C1=C\c1ccc([S+](C)[O-])cc1 (centres unmarked) | inactive
CC1(C)C[C@@H]1C(=O)N/C(=C\CCCCSC[C@H](N)C(=O)O)C(=O)[O-].[Na+] | inactive
Cc1c(C(=O)NN2CCCCC2)nn(-c2ccc(Cl)cc2Cl)c1-c1ccc(I)cc1 | inactive
CN(C)CCOC(C)(c1ccccc1)c1ccccn1 (centres unmarked) | inactive
COc1cc(C[C@@H](CO)[C@H](CO)Cc2ccc(O)c(OC)c2)ccc1O | inactive
CNNCc1ccc(C(=O)NC(C)C)cc1 | inactive
Nc1nc(O)c2ncn(COC(CO)CO)c2n1 | inactive
CN(CCOc1ccc(NS(C)(=O)=O)cc1)CCc1ccc(NS(C)(=O)=O)cc1 | inactive
O=C1Nc2ccc(Cl)cc2[C@@](C#CC2CC2)(C(F)(F)F)O1 | inactive
CC1Cc2ccccc2N1NC(=O)c1ccc(Cl)c(S(N)(=O)=O)c1 (centres unmarked) | inactive
Cc1ncc([N+](=O)[O-])n1CC(C)O (centres unmarked) | inactive
NC12CC3CC(CC(C3)C1)C2 | inactive
COC(=O)CCc1ccc(OCC(O)CNC(C)C)cc1 (centres unmarked) | inactive
CCOc1cc(N)c(Cl)cc1C(=O)NCC1CN(Cc2ccc(F)cc2)CCO1 (centres unmarked) | inactive
CC(C)[C@H]1CC[C@H](C(=O)N[C@H](Cc2ccccc2)C(=O)O)CC1 | inactive
CCCc1nc2c(C)cc(-c3nc4ccccc4n3C)cc2n1Cc1ccc(-c2ccccc2C(=O)O)cc1 | inactive
COC(=O)C1=C(C)NC(C)=C(C(=O)OC(C)C)C1c1cccc2nonc12 (centres unmarked) | inactive
CC1(C)S[C@@H]2[C@H](NC(=O)COc3ccccc3)C(=O)N2[C@H]1C(=O)O | inactive
C[n+]1ccccc1/C=N/O | inactive
CC(=O)Oc1ccccc1C(=O)Nc1ncc([N+](=O)[O-])s1 | inactive
O=S(=O)(O)CCS | inactive
CC(C)/N=c1\cc2n(-c3ccc(Cl)cc3)c3ccccc3nc-2cc1Nc1ccc(Cl)cc1 | inactive
CC1=C(C(=O)O)N2C(=O)[C@@H](NC(=O)[C@H](N)c3ccccc3)[C@H]2SC1.O | inactive

Other studies, line by line
Structure (SMILES) | target or system | test | test system | conditions | quantity | value
c1cn[nH]c1 | Cryptosporidium parvum |  |  |  | EC50 | 15800 µM
CC(=O)N1c2ccc(-c3ccc(C(=O)O)cc3)cc2[C@H](Nc2ccc(Cl)cc2)C[C@@H]1C | BRD3 | inhibitor |  |  | IC50 | 0.031 µM
NNC(=O)c1ccncc1 | Salmonella enterica serovar Typhimurium | Ames test |  | concentration not given | Ames mutagenicity | positive
Cc1nc(-c2ccc(OCC(C)C)c(C#N)c2)sc1C(=O)O |  |  | healthy adult human |  | half-life | 5 to 8 h
COc1ccccc1Oc1cccc(CN2CCC(NC(=O)C(CCN3CCCC3)c3ccccc3)CC2)c1 (centres unmarked) | human CCR8 Y172A mutant (ECL2) | IP accumulation, agonist |  |  | EC50 | 0.0047 µM
O=C(c1ccc(Cl)cc1)N(Cc1ccccc1)C1CCCCC1 | RAGE | binding |  |  | Kd | 0.015 µM
CN(C)C(=O)c1sc2nc(N3CCC(S(C)(=O)=O)CC3)cc(C(F)(F)F)c2c1N | IKBKB | biochemical activity |  |  | IC50 | > 10 µM
CO[C@H]1C[C@@H]2CC[C@@H](C)[C@@](O)(O2)C(=O)C(=O)N2CCCC[C@H]2C(=O)O[C@H]([C@H](C)C[C@@H]2CC[C@@H](O)[C@H](OC)C2)CC(=O)[C@H](C)/C=C(\C)[C@@H](O)[C@@H](OC)C(=O)[C@H](C)C[C@H](C)/C=C/C=C/C=C/1C |  |  | water |  | solubility | < 1000 µg/mL
CCc1cc(Cl)c(OC)c(C(=O)NC[C@@H]2CCCN2CC)c1O | dopamine D4 receptor | binding |  |  | Ki | 0.048 µM
CC[C@H]1OC(=O)[C@H](C)[C@@H](O[C@H]2C[C@@](C)(OC)[C@@H](O)[C@H](C)O2)[C@H](C)[C@@H](O[C@@H]2O[C@H](C)C[C@H](N(C)C)[C@H]2O)[C@](C)(OC)C[C@@H](C)C(=O)[C@H](C)[C@@H](O)[C@]1(C)O |  |  | FaSSIF | literature value | solubility | 132 µg/mL (≈ 176 µM)
CC(C)C[C@@H](C(=O)N[C@H](C(=O)OC1CCCC1)c1ccccc1)[C@H](O)C(=O)NO | Vero | MTT |  |  | CC50 | 12.7 ± 3.2 µM
N#Cc1ccc(C[C@H](NC(=O)Nc2ccc(F)cc2)C(=O)N2CCc3ccccc32)cc1 |  |  | rat liver microsomes | 30 min | remaining compound | 22%
N=C(N)NCCC[C@H](NC(=O)[C@H](CCCNC(=N)N)NC(=O)[C@H](CCCCN)NC(=O)[C@H](CCC(N)=O)NC(=O)[C@H](CCCCN)NC(=O)[C@H](Cc1ccc(O)cc1)NC(=O)[C@@H](N)CCCCN)C(=O)N[C@@H](CO)C(=O)N[C@@H](Cc1ccc(O)cc1)C(=O)N[C@@H](CCCCN)C(=O)O |  |  | beagle dog IPC model |  | local NOAEL | 0.08 mg/kg
COc1ccc(C[C@H](N)C(=O)N[C@H]2[C@@H](O)[C@H](n3cnc4c(N(C)C)ncnc43)O[C@@H]2CO)cc1 | Vero | MTT |  |  | CC50 | 2.76 ± 0.16 µM
Cc1cc(C#N)cc(C)c1Oc1nc(Nc2ccc(C#N)cc2)nc(N)c1Br |  |  | FaSSIF |  | solubility | ~0.99 µg/mL (≈ 2.27 µM)
CC(=O)N1CCc2c(c(N3CCCc4cc(-c5cnn(C)c5)c(C(F)F)cc43)nn2C2CCOCC2)C1 | PI3Kα |  |  |  | IC50 | 0.034 µM
CN(C)CC(c1ccc(O)cc1)C1(O)CCCCC1 (centres unmarked) | dopamine transporter |  |  |  | IC50 | 0.854 µM
NC(=O)N1CCC(CC(=O)N2CCC([C@H]3c4ncc(Br)cc4CCc4cc(Cl)cc(Br)c43)CC2)CC1 |  |  | water |  | solubility | < 1000 µg/mL
C[C@H]1O[C@@H](O[C@H]2[C@@H](O)C[C@H](O[C@H]3[C@@H](O)C[C@H](O[C@H]4CC[C@@]5(C)[C@H](CC[C@@H]6[C@@H]5C[C@@H](O)[C@]5(C)[C@@H](C7=CC(=O)OC7)CC[C@]65O)C4)O[C@@H]3C)O[C@@H]2C)C[C@H](O)[C@@H]1O |  |  | FaSSIF | literature value | solubility | 15.6 µg/mL (≈ 20 µM)
O=c1ccc2nc3ccc(O)cc3oc-2c1 |  |  |  |  | pKa | ~6
COc1ccc2c(c1)O[C@H](c1ccc(OC)c(OC)c1)C[C@@H]2NC(=O)C1(c2ccc3c(c2)OC(F)(F)O3)CC1 (single isomer, unassigned) | CFTR | cellular activity |  |  | EC50 | 0.028 µM
CCO | Escherichia coli AdhE | substrate |  |  | Km | 10.6 mM
COc1ccccc1Oc1cccc(CN2CCC(O)(c3ccccc3C(=O)O)CC2)c1 | human CCR8 K193A mutant (TM5) | IP accumulation, agonist |  |  | EC50 | 0.012 µM
C[C@@H]1C[C@H]2[C@@H]3CCC4=CC(=O)C=C[C@]4(C)[C@@]3(F)[C@@H](O)C[C@]2(C)[C@@]1(O)C(=O)CO |  |  |  |  | water solubility | 89 µg/mL (≈ 227 µM)
Cc1ccc(-c2cc(C(F)(F)F)nn2-c2ccc(S(N)(=O)=O)cc2)cc1 |  |  | rat, plasma | oral, 100 mg/kg single dose | Tmax | 3.2 h

For quick reference, copied from above (sample 1):
SMILES | activity
Nc1nc(O)c2ncn(COC(CO)CO)c2n1 | inactive
CN(CCOc1ccc(NS(C)(=O)=O)cc1)CCc1ccc(NS(C)(=O)=O)cc1 | inactive
O=C1Nc2ccc(Cl)cc2[C@@](C#CC2CC2)(C(F)(F)F)O1 | inactive
